# Measured values pooled from the literature.
# Numbered parts are unrelated; each lists some results of a single study. Changes are numbered by the printed parent chain.
# Chain of UniProt P00519 (whole entry, looked up): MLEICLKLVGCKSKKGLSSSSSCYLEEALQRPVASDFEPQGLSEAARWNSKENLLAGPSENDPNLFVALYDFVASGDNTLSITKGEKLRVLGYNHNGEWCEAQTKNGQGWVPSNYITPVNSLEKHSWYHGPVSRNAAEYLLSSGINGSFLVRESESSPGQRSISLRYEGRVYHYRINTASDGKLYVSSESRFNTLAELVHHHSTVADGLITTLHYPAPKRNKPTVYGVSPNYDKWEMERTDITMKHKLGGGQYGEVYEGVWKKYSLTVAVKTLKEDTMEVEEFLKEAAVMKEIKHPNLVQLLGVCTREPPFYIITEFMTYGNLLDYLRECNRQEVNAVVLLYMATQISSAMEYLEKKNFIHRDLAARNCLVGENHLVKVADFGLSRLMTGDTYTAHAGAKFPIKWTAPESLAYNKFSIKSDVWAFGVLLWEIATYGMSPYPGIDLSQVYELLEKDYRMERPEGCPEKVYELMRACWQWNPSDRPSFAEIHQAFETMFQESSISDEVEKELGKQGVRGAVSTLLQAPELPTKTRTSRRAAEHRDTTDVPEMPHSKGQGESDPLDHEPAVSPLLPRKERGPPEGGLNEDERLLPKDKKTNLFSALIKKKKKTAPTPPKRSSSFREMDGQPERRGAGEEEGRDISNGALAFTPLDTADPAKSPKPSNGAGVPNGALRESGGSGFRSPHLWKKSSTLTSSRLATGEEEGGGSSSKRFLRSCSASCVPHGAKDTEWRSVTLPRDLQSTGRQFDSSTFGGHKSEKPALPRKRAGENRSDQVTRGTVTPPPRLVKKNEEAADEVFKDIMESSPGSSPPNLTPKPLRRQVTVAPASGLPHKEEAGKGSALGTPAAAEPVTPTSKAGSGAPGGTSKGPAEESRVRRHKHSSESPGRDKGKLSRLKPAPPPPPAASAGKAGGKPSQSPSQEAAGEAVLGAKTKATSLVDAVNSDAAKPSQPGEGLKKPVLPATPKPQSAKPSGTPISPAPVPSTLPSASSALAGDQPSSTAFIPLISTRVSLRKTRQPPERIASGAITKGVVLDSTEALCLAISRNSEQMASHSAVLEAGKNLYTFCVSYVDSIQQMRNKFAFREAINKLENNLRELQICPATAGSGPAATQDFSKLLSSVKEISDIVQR
# Chain of UniProt O76039 (whole entry, looked up): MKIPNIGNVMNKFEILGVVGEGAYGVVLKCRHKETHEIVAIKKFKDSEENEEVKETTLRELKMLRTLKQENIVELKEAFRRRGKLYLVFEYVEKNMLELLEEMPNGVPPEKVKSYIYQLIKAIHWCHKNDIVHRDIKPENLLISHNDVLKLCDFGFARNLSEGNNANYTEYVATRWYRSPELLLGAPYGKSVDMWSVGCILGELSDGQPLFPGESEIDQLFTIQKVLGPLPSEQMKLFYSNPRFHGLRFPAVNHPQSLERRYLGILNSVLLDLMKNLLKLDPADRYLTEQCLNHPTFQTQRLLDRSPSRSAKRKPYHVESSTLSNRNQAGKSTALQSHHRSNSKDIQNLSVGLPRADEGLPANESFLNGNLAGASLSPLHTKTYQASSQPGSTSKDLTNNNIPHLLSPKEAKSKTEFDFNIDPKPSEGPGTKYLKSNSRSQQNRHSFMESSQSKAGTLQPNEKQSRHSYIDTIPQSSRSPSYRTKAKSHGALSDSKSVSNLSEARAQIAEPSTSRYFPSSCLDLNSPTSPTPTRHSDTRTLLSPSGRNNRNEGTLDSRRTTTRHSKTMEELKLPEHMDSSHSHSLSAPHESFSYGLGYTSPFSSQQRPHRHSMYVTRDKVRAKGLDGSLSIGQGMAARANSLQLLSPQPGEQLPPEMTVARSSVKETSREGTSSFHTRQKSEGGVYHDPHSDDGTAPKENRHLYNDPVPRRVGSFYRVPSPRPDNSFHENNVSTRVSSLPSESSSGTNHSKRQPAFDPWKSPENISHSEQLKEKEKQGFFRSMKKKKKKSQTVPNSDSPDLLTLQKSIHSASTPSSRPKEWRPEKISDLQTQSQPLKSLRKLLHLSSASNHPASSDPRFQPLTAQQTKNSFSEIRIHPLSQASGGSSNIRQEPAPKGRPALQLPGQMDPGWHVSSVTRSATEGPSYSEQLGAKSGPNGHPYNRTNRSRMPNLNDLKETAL
# Chain of UniProt Q8NG66 (whole entry, looked up): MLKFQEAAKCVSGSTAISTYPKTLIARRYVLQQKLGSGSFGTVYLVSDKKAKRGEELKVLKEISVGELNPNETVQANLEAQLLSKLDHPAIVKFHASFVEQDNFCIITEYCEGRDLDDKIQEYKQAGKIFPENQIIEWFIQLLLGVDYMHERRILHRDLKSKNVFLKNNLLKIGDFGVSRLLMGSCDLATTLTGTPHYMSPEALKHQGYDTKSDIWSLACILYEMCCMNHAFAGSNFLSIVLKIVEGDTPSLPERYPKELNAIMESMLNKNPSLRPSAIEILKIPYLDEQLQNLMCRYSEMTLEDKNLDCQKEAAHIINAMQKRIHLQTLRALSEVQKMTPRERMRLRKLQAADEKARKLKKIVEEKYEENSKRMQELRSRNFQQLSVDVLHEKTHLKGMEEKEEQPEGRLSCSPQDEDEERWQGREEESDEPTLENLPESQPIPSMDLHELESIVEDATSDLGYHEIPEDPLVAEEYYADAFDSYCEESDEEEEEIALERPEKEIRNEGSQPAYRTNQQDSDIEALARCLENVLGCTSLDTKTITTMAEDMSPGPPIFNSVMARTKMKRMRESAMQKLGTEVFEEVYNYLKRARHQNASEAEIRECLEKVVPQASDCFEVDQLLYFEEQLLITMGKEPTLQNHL
# Chain of UniProt P10721 (whole entry, looked up): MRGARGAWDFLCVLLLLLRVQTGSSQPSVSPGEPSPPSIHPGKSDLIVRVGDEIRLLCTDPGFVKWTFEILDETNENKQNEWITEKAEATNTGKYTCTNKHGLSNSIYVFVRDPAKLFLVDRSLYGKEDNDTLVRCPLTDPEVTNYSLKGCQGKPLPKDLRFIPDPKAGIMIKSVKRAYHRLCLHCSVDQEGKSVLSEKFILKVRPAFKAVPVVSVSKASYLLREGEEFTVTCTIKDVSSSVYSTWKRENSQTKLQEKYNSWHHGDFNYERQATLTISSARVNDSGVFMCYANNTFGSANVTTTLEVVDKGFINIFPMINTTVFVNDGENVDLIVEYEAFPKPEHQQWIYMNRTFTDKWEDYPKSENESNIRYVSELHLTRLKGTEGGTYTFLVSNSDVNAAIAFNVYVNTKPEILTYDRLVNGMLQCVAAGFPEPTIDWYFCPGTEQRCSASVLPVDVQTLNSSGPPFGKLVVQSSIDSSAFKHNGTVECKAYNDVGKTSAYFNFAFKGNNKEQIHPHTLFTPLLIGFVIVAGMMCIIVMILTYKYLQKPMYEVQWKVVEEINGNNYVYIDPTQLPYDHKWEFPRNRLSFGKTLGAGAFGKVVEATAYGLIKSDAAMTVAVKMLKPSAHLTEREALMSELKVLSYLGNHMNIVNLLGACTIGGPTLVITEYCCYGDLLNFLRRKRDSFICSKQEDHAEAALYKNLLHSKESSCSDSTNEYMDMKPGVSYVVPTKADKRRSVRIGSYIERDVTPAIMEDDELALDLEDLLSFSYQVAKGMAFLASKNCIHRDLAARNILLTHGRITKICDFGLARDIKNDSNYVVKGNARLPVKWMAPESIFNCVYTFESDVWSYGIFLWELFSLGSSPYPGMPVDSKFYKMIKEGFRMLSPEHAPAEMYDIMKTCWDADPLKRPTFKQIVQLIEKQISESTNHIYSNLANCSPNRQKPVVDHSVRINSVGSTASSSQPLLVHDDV
# Chain of UniProt P48729 (whole entry, looked up): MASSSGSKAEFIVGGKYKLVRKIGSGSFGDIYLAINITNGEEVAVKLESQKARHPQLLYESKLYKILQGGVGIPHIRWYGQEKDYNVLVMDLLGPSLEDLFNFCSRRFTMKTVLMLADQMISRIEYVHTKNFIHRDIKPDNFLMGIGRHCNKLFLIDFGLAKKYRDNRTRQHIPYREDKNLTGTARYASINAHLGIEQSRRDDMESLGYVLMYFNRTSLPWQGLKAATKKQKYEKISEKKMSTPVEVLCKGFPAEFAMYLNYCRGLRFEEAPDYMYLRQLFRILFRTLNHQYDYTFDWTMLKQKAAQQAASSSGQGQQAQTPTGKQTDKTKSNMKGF

# Series 1
# Target: CEP164, C-terminal peptide (human)
# Method: DHFR complementation, deep sequencing
# Medium: yeast
# Notes: single substitutions, model-inferred values
# Baseline: wild type
# Reading: higher = weaker binding
# Parent: PDZK1, PDZ domain 2 (human); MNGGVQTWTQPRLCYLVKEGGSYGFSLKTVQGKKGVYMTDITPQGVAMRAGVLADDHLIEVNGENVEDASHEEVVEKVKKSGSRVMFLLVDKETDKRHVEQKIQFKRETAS; partner HNRVKVYRF
Variant,binding free energy change
G32Y,0.198 kcal/mol
Y15W,0.253 kcal/mol
S70N,0.0955 kcal/mol
S22G,0.124 kcal/mol
V75N,2.62 kcal/mol
K106E,-0.122 kcal/mol
E64F,0.284 kcal/mol
A50W,0.669 kcal/mol

# Series 2
# Target: Protein kinase C delta type (PRKCD, Homo sapiens, UniProt Q05655)
# Chain of UniProt Q05655 (whole entry, looked up): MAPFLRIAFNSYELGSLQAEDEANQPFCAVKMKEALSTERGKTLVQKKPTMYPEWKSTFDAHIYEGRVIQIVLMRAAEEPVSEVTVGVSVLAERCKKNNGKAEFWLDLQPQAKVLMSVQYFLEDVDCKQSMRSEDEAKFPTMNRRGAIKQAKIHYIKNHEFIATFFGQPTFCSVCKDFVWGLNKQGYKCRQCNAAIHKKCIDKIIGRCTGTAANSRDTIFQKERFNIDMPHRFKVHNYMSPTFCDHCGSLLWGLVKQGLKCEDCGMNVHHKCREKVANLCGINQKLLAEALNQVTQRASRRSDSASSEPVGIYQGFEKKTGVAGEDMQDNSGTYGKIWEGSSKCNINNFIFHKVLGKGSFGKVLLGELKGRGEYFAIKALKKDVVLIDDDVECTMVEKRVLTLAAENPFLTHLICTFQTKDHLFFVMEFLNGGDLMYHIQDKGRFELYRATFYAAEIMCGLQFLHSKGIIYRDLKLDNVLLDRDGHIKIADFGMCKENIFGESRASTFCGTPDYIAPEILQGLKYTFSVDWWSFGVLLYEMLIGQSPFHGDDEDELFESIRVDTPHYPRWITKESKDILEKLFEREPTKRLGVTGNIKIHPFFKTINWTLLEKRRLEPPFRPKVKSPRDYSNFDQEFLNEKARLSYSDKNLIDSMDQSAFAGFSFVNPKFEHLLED
# Observed: enzyme activity
# Action: inhibitor
# Tested at: 0.5 µM
# Baseline: control
Structure (SMILES),remaining activity [%]
O=C1C(Cl)=C(N2C(=O)CCC2=O)C(=O)c2ccccc21,97.8
O=C1c2ccccc2-c2n[nH]c3cccc1c23,94.9
CCN(CC)CCNC(=O)c1c(C)[nH]c(/C=C2\C(=O)Nc3ccc(Cl)cc32)c1C,90.4
COc1cc2c(cc1OC)-c1[nH]nc(Nc3cccc(F)c3)c1C2,111
N#C/C(=C\c1ccc(O)c(O)c1)C(=O)NCc1ccccc1,91.1
Ic1cccc(CSc2nnc(-c3ccncc3)o2)c1,83.7
O=C(NC(NC(=S)Nc1ccc(F)c([N+](=O)[O-])c1)C(Cl)(Cl)Cl)C(c1ccccc1)c1ccccc1 (stereo not drawn),91.2

# Series 3
# Target: POU, POU domain (Salpingoeca helianthica)
# Method: Spec-seq
# Form: double-stranded DNA, one strand shown
# Medium: in vitro
# Tested at: not given
# Notes: whole probe, mean of replicates
# Baseline: not given
# Reading: lower = stronger binding
# Shared flanks, not repeated: GAGTCGTCTCGTCAGCAC … CCGTAGAGCACTCAGGTC
# Construct (chain): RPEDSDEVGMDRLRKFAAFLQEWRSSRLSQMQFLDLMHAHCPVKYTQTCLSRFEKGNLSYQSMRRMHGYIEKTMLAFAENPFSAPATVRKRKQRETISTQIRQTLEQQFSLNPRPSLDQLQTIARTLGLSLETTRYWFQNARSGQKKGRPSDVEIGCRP
Strand,relative binding energy [ln ratio]
TGCATAAT,0.56
TAATTAAT,-2.13
ATGCTTCG,0.998
ATATCAAT,1.07
ATGCCACT,1.23
CGGATAAT,0.377
TCTGTAAT,0.478
ATCGTTAT,-0.779

# Series 4
# SMILES: COc1cccc(CNC(=O)c2nc3scc(COCc4ccc(C(=O)O)cc4)c3c(=O)[nH]2)c1
# Observed: cell-free assay
# Method: competition with immobilised ligand
# Tested at: 1 µM
target,remaining binding
"Mast/stem cell growth factor receptor Kit (KIT, Homo sapiens, UniProt P10721)",93%
"Protein kinase C delta type (PRKCD, Homo sapiens, UniProt Q05655)",87.7%
"Phosphatidylinositol 4,5-bisphosphate 3-kinase catalytic subunit delta isoform (PIK3CD, Homo sapiens, UniProt O00329)",85.7%
"RAF proto-oncogene serine/threonine-protein kinase (RAF1, Homo sapiens, UniProt P04049)",85.6%
"Serine/threonine-protein kinase Nek11 (NEK11, Homo sapiens, UniProt Q8NG66)",65.6%
"SNF-related serine/threonine-protein kinase (SNRK, Homo sapiens, UniProt Q9NRH2)",89.2%
"Dual specificity mitogen-activated protein kinase kinase 2 (MAP2K2, Homo sapiens, UniProt P36507)",75.1%
"cGMP-dependent protein kinase 1 (PRKG1, Homo sapiens, UniProt Q13976)",100%
"Ephrin type-B receptor 1 (EPHB1, Homo sapiens, UniProt P54762)",90.9%
"Serine/threonine-protein kinase PAK 2 (PAK2, Homo sapiens, UniProt Q13177)",100%
"Cyclin-dependent kinase-like 5 (CDKL5, Homo sapiens, UniProt O76039)",89.5%
"Tyrosine-protein kinase ABL1, non-phosphorylated (ABL1, Homo sapiens, UniProt P00519)",85%
"Serine/threonine-protein kinase LATS2 (LATS2, Homo sapiens, UniProt Q9NRM7)",86.2%
"Fibroblast growth factor receptor 2 (FGFR2, Homo sapiens, UniProt P21802)",100%
"Casein kinase I isoform alpha (CSNK1A1, Homo sapiens, UniProt P48729)",82.1%
"Tyrosine-protein kinase Srms (SRMS, Homo sapiens, UniProt Q9H3Y6)",78.3%
